Results from different studies.
Parts stem from different laboratories: compare values within a part only. Substitutions count along the parent as printed.

Block 1
Target: ATF7, bZIP domain (human)
Method: DHFR protein complementation
Sample: yeast
Notes: single substitutions, most at no-binding floor
Reference: wild-type JUN-FOS pair
Direction: higher = stronger binding
Starting sequence: JUN, bZIP domain (human); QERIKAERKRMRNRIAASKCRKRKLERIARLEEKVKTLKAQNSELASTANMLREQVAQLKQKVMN; partner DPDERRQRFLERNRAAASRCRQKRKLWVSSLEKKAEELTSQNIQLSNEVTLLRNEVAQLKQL
Substitution	binding fitness
L45W	-1.49 natural log
S47Y	-1.01 natural log
N42Q	-1.2 natural log
A46N	-0.826 natural log
E32R	-0.85 natural log
T37R	-0.843 natural log
E32H	-1.26 natural log
T48S	-1.27 natural log
A29M	-1.16 natural log
L45G	-1.46 natural log
N42S	-1.41 natural log
K34D	-1.35 natural log
N42P	-1.51 natural log
A57S	-1.14 natural log
E44P	-1.5 natural log
Q41R	-0.908 natural log
K39Q	-0.971 natural log
A29C	-0.989 natural log
L45P	-1.51 natural log

Block 2
Target: CCNA2, cyclin fold, Cln2 fusion (human)
Method: yeast growth competition, sequencing
Sample: yeast
Notes: strong parent motif
Reference: not given
Direction: higher = stronger binding
Starting sequence: BRCA2 docking peptide (human); PSIKRNLLNEFDR; partner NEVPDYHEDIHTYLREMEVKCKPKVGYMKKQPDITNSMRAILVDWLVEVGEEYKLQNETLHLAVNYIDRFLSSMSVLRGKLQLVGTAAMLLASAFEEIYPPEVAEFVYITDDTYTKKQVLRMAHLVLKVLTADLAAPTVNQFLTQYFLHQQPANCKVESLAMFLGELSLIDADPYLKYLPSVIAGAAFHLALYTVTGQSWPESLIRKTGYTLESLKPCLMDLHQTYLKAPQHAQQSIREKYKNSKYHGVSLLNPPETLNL
Substitution	normalised enrichment score
PSIKENLLNEFDR [R5E]	0.374
PSIKRNLLNFFDR [E10F]	2.66
PSIKRNLLFEFDR [N9F]	4.03
PSIKRALLNEFDR [N6A]	4.47
PSIKRNLLNEFWR [D12W]	3.64
PSINRNLLNEFDR [K4N]	3
PSIKRNLLNSFDR [E10S]	2.53
PSIKCNLLNEFDR [R5C]	1.09
PSIKNNLLNEFDR [R5N]	0.494
PSIKRNLLNEFDI [R13I]	5.8
PSIKRNLLNENDR [F11N]	-0.251
PSIKTNLLNEFDR [R5T]	1.26
PSIKYNLLNEFDR [R5Y]	1.16
PSIKRELLNEFDR [N6E]	2.25
PSEKRNLLNEFDR [I3E]	1.28
PSIKRNGLNEFDR [L7G]	0.334
PSIKRNLLNEFDD [R13D]	4.94
PPIKRNLLNEFDR [S2P]	4.58
PSIKRNLLNEFKR [D12K]	3.22
PSIKRNLLNECDR [F11C]	-0.269
PSIKRNLLNTFDR [E10T]	-0.0277
PSIKLNLLNEFDR [R5L]	0.49
PSIKRNLLNEFDF [R13F]	4.32
PSIKRNLLREFDR [N9R]	5.61

Block 3
Target: ABI1, truncated, D143A, DHFR fusion (Arabidopsis thaliana)
Method: DHFR PCA, deep sequencing
Sample: yeast
Notes: methotrexate growth selection, single substitutions
Together with: (+)-ABA 2500 µM
Reference: wild-type fitted maximum
Direction: higher = stronger binding
Starting sequence: PYL1, truncated, DHFR fusion (Arabidopsis thaliana); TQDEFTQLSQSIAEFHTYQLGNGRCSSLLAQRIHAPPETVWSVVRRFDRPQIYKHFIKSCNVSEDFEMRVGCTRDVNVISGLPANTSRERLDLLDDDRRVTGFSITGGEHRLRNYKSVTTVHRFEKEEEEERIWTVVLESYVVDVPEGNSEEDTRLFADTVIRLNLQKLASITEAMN; partner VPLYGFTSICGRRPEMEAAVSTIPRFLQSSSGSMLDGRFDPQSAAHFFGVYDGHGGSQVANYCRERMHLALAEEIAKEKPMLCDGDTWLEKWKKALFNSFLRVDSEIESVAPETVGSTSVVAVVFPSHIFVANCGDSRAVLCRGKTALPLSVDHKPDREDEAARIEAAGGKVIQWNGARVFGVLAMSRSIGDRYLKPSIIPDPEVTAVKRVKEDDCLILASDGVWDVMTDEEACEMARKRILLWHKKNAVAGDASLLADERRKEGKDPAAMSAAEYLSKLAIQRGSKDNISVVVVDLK
Substitution	relative binding score [%]
R163F	56.5
V70W	74.9
K58W	84
H110E	32.7
I162N	77.7
A84N	56
P37N	84.5
E174A	91.8
K168C	96.8
T101D	0.11
L20Y	93.5
F15E	85.2
E67I	105
G21W	96.4
L156S	96.1
R49N	99.4
L20I	97.9
K126H	96.6
N149Y	56.2
L112R	2
T73C	96.1
S117G	85
T173M	92.9

Block 4
Target: Sal-like protein 4, full length isoform B (SALL4, Homo sapiens, UniProt Q9UJQ4-2, residues 1-616)
Method: universal PBM
Molecule type: double-stranded DNA, one strand shown
Sample: in vitro
Concentration: not given
Notes: 8-mer, flanks averaged, mean of replicates
Direction: higher = stronger binding
Construct (chain): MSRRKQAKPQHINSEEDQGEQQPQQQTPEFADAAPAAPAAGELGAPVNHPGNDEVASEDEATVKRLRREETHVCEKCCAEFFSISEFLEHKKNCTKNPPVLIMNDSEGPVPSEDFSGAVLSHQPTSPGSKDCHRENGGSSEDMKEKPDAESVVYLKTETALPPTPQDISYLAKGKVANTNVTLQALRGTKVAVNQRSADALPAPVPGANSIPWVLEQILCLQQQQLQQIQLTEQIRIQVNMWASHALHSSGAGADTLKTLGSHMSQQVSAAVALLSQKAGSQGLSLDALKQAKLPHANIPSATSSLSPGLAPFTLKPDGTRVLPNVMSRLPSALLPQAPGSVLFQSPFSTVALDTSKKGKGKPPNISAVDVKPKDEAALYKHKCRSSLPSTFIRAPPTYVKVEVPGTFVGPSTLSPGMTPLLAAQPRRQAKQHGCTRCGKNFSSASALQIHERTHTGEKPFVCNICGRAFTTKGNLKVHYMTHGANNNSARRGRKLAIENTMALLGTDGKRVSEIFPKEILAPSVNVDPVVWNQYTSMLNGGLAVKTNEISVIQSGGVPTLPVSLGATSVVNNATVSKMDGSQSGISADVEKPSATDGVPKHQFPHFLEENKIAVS
Sequence	E-score
ATTCGCAC	-0.149
ACGTCCAG	-0.112
ACTTGCAG	0.0105
AGTGATCG	-0.0823
AACATCCC	-0.131
AGCCAGTG	-0.27
CCGACACA	-0.0993
CCGCGACA	-0.248
TACCGTGA	-0.101
ATTGGTCG	0.0626
AATAATTG	0.409
CGTCCTTC	0.0205
GCTTCAAC	-0.116
CATGTGGG	-0.17
ACTATCAT	0.247
AGAGACTG	-0.251
AGCTAAAG	0.0152
GTCCTTAA	0.166
ATGTCCCA	-0.159

Block 5
Target: Histone acetyltransferase KAT6A, winged helix 2, GST fusion (KAT6A, Homo sapiens, UniProt Q92794, residues 85-181)
Method: protein binding microarray
Molecule type: double-stranded DNA, one strand shown
Sample: in vitro
Concentration: not given
Notes: 8-mer, flanks averaged, mean of 2 arrays, mostly near background
Reference: not given
Direction: higher = stronger binding
Construct (chain): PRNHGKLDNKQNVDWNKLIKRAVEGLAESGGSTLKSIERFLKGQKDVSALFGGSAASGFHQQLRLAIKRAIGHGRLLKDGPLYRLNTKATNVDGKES
Sequence	E-score
AATTACTC	0.0298
CCCAGGCC	0.057
ATGAACCG	0.00863
AAAAACTT	-0.00284
GTTTCATA	-0.146
CATTCAAC	-0.0532
CGCGATCA	0.0591
GGCTGAGA	-0.123
AAAGTCGT	-0.168
CCCTCGGA	0.216
TGCCAGAA	0.0129
ATCCTAAG	-0.0291
CTCGATCC	0.0315
GCGGTGAC	0.0601
CAATAGGC	0.0616
GCGGGAGC	0.1
CCCTACCG	0.00831
GGTCCCAA	0.0336
ATTTAGGA	-0.116
ATAGCGGG	0.0976
AGAATCCT	-0.0251
CAATGGCA	0.0744
AAGTGTTC	-0.148
CTTGTTTA	0.074
CAGGAGCA	0.0865

Repeated from above (block 1):
Substitution	binding fitness
A46N	-0.826 natural log
E32R	-0.85 natural log
T37R	-0.843 natural log
E32H	-1.26 natural log
T48S	-1.27 natural log
A29M	-1.16 natural log
L45G	-1.46 natural log
N42S	-1.41 natural log
K34D	-1.35 natural log
N42P	-1.51 natural log
A57S	-1.14 natural log
E44P	-1.5 natural log
Q41R	-0.908 natural log
K39Q	-0.971 natural log
